{"data": "Measurements collected from several papers", "note": "Numbered parts are unrelated; each lists some results of a single study."}
{"data": "Study 1", "target": "TAR DNA-binding protein 43, full length, His tag (TARDBP, Homo sapiens, UniProt Q13148, residues 1-414)", "method": "RNA Bind-n-Seq", "form": "RNA", "medium": "in vitro", "tested at": "20 nM", "notes": "6-mer, flanks averaged, single round", "added": "150 mM KCl", "relative to": "input library", "direction": "higher = stronger binding"}
{"Strand": "CCAUGA", "6-mer enrichment (R)": 0.667}
{"Strand": "ACUCAC", "6-mer enrichment (R)": 0.585}
{"Strand": "ACAAUC", "6-mer enrichment (R)": 0.593}
{"Strand": "AUACGC", "6-mer enrichment (R)": 0.648}
{"Strand": "GUGGCA", "6-mer enrichment (R)": 1.55}
{"data": "Study 2", "target": "Interferon regulatory factor 5, full length, phosphomimetic (IRF5, Homo sapiens, UniProt Q13568-2, residues 1-514, K96S/S451D/S453D/S456D/S462D)", "method": "protein-binding microarray", "form": "double-stranded DNA, one strand shown", "medium": "in vitro", "tested at": "250 nM", "notes": "60-bp whole probe", "added": "salmon DNA 0.4 mg/ml", "relative to": "random background probes", "direction": "higher = stronger binding", "all sequences stand within": "GCCTAGCAC … GTCTTGATTCGCTTGACGCTGCTG"}
{"Strand": "GAAAATTAGTGTTTTGCCCTGTGCTAG", "log fluorescence": "1.11 z-score"}
{"Strand": "GACGGTATCGGGACTGGGGGCGTGCTA", "log fluorescence": "2.28 z-score"}
{"Strand": "AAGCTTCTGGTCTTCTGGACGTGCTAG", "log fluorescence": "0.0391 z-score"}
{"Strand": "TTAGATCTCAATTTCGATTAGTGCTAG", "log fluorescence": "6.81 z-score"}
{"Strand": "GACGGACTGGGACTCGGGACGTGCTAG", "log fluorescence": "-0.443 z-score"}
{"data": "Study 3", "target": "Histone acetyltransferase KAT6A, both winged helices, GST fusion (KAT6A, Homo sapiens, UniProt Q92794, residues 1-181)", "method": "protein binding microarray", "form": "double-stranded DNA, one strand shown", "medium": "in vitro", "tested at": "not given", "notes": "8-mer, flanks averaged, mean of 2 arrays, mostly near background", "relative to": "not given", "direction": "higher = stronger binding", "Target sequence (chain)": "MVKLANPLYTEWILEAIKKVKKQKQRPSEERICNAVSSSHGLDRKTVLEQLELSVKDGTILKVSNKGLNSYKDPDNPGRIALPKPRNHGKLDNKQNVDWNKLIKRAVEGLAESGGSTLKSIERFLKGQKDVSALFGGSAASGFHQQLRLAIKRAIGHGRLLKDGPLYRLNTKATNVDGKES"}
{"Strand": "CCCTTTTC", "E-score": -0.281}
{"Strand": "AGCCGTAT", "E-score": 0.2}
{"Strand": "ACAGCGTA", "E-score": 0.123}
{"Strand": "ATTCGGTC", "E-score": 0.0743}
{"Strand": "AAGGGTAT", "E-score": -0.114}
{"Strand": "TCCTAAGA", "E-score": -0.174}
{"Strand": "AACACAGA", "E-score": -0.12}
{"data": "Further values, each from its own experiment"}
{"Molecule": "PhoQ, residues 284 288 289 292 302 303 GASLAW", "target": "PhoP, residues 12 14 15 18 19 TPLRH (Escherichia coli, UniProt P23836)", "test": "Sort-seq, measured: YFP reporter", "test system": "E. coli", "setting": "PhoQ-PhoP variant library, added: 10 µM Mg2+", "scale": "relative to: high Mg2+ state, higher = stronger signaling", "quantity": "fold induction", "value": 0.912}
{"note": "Repeated from above (study 2):"}
{"Strand": "GACGGTATCGGGACTGGGGGCGTGCTA", "log fluorescence": "2.28 z-score"}
